Published values pooled from the literature.
Each line is one published result; not all experiments were run side by side. “And” joins repeats or separate records; there may be more than shown. ± gives the spread as reported.

CC(=O)O[C@H]1C(=O)[C@@]2(C)[C@H]([C@H](OC(=O)c3ccccc3)[C@]3(O)C[C@H](OC(=O)[C@H](O)[C@@H](NC(=O)c4ccccc4)c4ccccc4)C(C)=C1C3(C)C)[C@]1(OC(C)=O)CO[C@@H]1C[C@@H]2O
selectivity index (COS-7 and PC-3/TxR; relative to: IC50 COS-7 over PC-3/TxR): 0.1

Cn1cc(Nc2nccc(-c3ccc4c(c3)CN(C3COC3)CC[C@H]4NC(=O)c3cn(C(C)(C)C)nn3)n2)cn1
pathway activation z-score (mouse splenic B cells; refers to: Interferon signalling; 30 mg/kg, IgD-activated in vivo; relative to: vehicle, direction not given): 2.24

N=C(CCl)NCCC[C@H](NC(=O)c1ccccc1)C(N)=O
NET formation (MRL/lpr mouse bone marrow neutrophils; concentration not given, 4 h, 8-week-old donors, added: PMA): inhibited

O=C(/C=C/C=C/C=C/C1CCCCC1)NC1=C[C@@](O)(/C=C/C=C/C=C/C(=O)NC2=C(O)CCC2=O)[C@@H]2O[C@@H]2C1=O
GI50 (NCI-H1792; cell growth, CellTiter-Glo; 78 h): 24.4 µM

C[C@H]1Oc2cc(cnc2N)-c2c(nn(C)c2C#N)CN(C)C(=O)c2ccc(F)cc21
Emax (Ba/F3 EML4-ALK v1; cell viability): 100%

N#Cc1ccc(C[C@@H](NC(=O)c2cc3cc([N+](=O)[O-])ccc3[nH]2)C(=O)N2CCc3ccccc32)cc1
EC50 (human neutrophils; calcium mobilization, agonist): > 50 µM

C#C[C@@]1(O)[C@@H](CO)O[C@@H](n2cc(F)c3c(N)ncnc32)[C@@H]1O
LC50 (NCI60 panel; cell viability; mean over panel): -4.2 log M

Cc1cc(Nc2ncc(Cl)c(Nc3ccccc3S(=O)(=O)C(C)C)n2)c(OC(C)C)cc1C1CCNCC1
log2 fold change (CLB-GE; LC-MS/MS phosphoproteomics, refers to: A2M phosphorylation; 200 nM, 60 min; relative to: untreated): 0.0119

CC[C@H]1CN2CCc3cc(OC)c(OC)cc3[C@@H]2C[C@@H]1C[C@H]1NCCc2cc(OC)c(OC)cc21
EC90 (Toxoplasma gondii; parasite growth; HFF, bradyzoite, alkaline-induced): 2.5 µM

COC(=O)Nc1nc2ccc(C(=O)c3cccs3)cc2[nH]1
S-phase cells (tsFT210 G2-synchronised; flow cytometry; 100 nM, 4 h after release at 32 °C): 2.2%

CCOc1ccc(N(C)S(=O)(=O)c2ccsc2C(=O)Nc2cccc(C(=O)O)c2)cc1
activity (CCF-STTG1; ABCA1 promoter reporter; concentration not given): inactive

CCn1cc(-c2cc(Cn3ccnc3)cc3c2CCN([C@H](c2cc(OC)ccn2)C2CC2)C3=O)c(C(F)(F)F)n1
EC50 (SNU1079; cell growth; 120 h): > 30 µM

C=CC1=C(C)c2cc3[n-]c(cc4nc(cc5[n-]c(cc1n2)c(C)c5C=C)C(C)=C4CCC(=O)O)c(CCC(=O)O)c3C.[Zn+2]
fold change (SH-SY5Y; RNA-seq, refers to: SYNJ2 mRNA; 5 µM, 5 h; relative to: untreated cells): 2.71

Cn1cc(-c2ccc(-c3cncc(Cl)c3N3CCC4(CCNC4=O)CC3)cc2)cn1
log2 fold change (COLO 205; gene expression, microarray, refers to: LGALS1 mRNA; concentration not given, 6 h; relative to: untreated cells): 4.24

CN(CCCN1CCN(C(=O)[C@H](CCCCNC(=O)CC[C@H](C(=O)O)N2CCN(CC(=O)O)CCN(CC(=O)O)CC2)NC(=O)CCOCCOCCOCCOCCN)CC1)c1ccc2nccc(C(=O)NCC(=O)N3CC(F)(F)C[C@H]3C#N)c2c1
binding (HT-1080 cells expressing human FAP; flow cytometry; 0.2 µM, epitope accessibility, 200 nM): no binding

Cc1cc(NC(=O)c2cccc(NC(=O)/C=C/CN(C)C)c2)ccc1Nc1nccc(-c2cccnc2)n1
reporter activity (HEK293 AP1 reporter cells; AP-1 reporter gene, inhibitor; 1 µM, 6 h, unit not given, added: PMA; relative to: PMA alone): 0.951

Cc1cccc(-c2[nH]c(CNc3ccccc3F)nc2-c2ccc3ncnn3c2)n1
relative viability (bone marrow CD138+ myeloma cells; XTT; human; 3 µM; relative to: untreated): 0.05

Cc1nn(-c2nc3c(F)cc(F)cc3s2)c(O)c1C(c1ccc(C(F)(F)F)cc1)c1c(C)nn(-c2nc3c(F)cc(F)cc3s2)c1O
phospho-IRF3/IRF3 ratio (RAW-ISG; western blot; 10 µM, added: HT-DNA; relative to: vehicle): 0.705 and 0.698 and 0.577

Cc1cc(C)nc(SCC(=O)Nc2ncc(Cc3cccc(OCc4cn(Cc5ccc(OCCN6CCOCC6)cc5)nn4)c3)s2)n1
inhibition (PC-3M-luc; cell viability, MTS; 10 µM): 30.9 ± 2.2%

CC/C=C\C[C@H](O)/C=C/C=C\C/C=C\C=C\[C@@H](O)C/C=C\CCC(=O)O
cAMP level (HUVEC with GNAS siRNA knockdown; HTRF; concentration not given): decreased

Nc1cccc2c1C(=O)N(C1CCC(=O)NC1=O)C2=O (stereo not drawn)
surface marker level (RPMI-8226; flow cytometry, refers to: CD71; concentration not given; relative to: comparator compound alone): 239%

Nc1ncnc2c1ncn2[C@@H]1O[C@H](CO)[C@@H](O)[C@H]1O
basal OCR (activated human T cells; concentration not given, 4 h; relative to: vehicle): 50.4% and 41.1% and 41.8% and 44.7% and 49.6% and 43.7%

O=C1NCN(c2ccccc2)C12CCN(CCCC(c1ccc(F)cc1)c1ccc(F)cc1)CC2
viability (MCF-10A; CellTiter-Glo; concentration not given; relative to: normalised, mean of replicates): 52.7%

CCn1cc(-c2cc(Cn3ccoc3=N)cc3c2CCN([C@@H](C)c2cc(OC)ccn2)C3=O)c(C(F)(F)F)n1
EC50 (SBC-5; cell growth, inhibitor; 120 h): 0.0775 µM

CC(=O)c1nn(-c2ccc(C)cc2)/c(=N/N=C(\C)c2ccc(NC(=O)c3ccccc3)cc2)s1
cytotoxicity (MCF7; MTT; 1.25 µM): 94.7%

Cl
Km (human neutrophils; anion exchange, substrate, trans-stimulated sulfate efflux; external binding site): ~25 mM

CC(C)(C)C(=O)Oc1ccc(S(=O)(=O)Nc2ccccc2C(=O)NCC(=O)O)cc1
neutrophil swelling (human peripheral blood neutrophils; flow cytometry FSC/SSC; 50 µM, added: C5a 100 ng/mL, MPO-ANCA immune complex; relative to: unstimulated neutrophils): 3.28 fold change and 3.46 fold change and 2.98 fold change and 3.41 fold change

C=CCOc1c(C)c(O)c(C(=O)/C=C/c2ccccc2)c(OC)c1C
selectivity index (FaDu; SRB; relative to: normal over FaDu IC50): 1.09

CC/C(=N\NC(=O)C(C)Nc1ccccc1)c1ccc(O)c(C)c1O (stereo not drawn)
protein level (SK-OV-3; Western blot, refers to: YAP; 10 µM, 3 h, 3D gellan gum culture, unit not given; relative to: β-actin): 1.24 ± 0.36

Cc1cc(Nc2ncc(Cl)c(Nc3ccccc3S(=O)(=O)C(C)C)n2)c(OC(C)C)cc1C1CCNCC1
Emax (Ba/F3 EML4-ALK variant 1 S1206Y; cell viability): 100%

C[C@]12CC[C@@H]3c4ccc(O)cc4CC[C@H]3[C@@H]1CC[C@@H]2OC(=O)CCC1CCCC1
viability (MCF-10A; CellTiter-Glo; concentration not given; relative to: normalised luminescence): 100%

CCCCN1CCN(c2ccc3[nH]c(-c4ccc5[nH]c(-c6cc(OC)c(OC)c(OC)c6)nc5c4)nc3c2)CC1
growth percent (Malme-3M; SRB; 10 µM, 48 h): 21.1%

O=C(c1ccc(OCCN2CCCCC2)cc1)c1c(-c2ccc(O)cc2)sc2cc(O)ccc12
EC90 (Toxoplasma gondii; parasite growth; HFF, bradyzoite, glutamine-induced): 10.8 µM

Cn1cc(-n2cnc3c(NCc4nc5cc(Cl)c(Cl)cc5[nH]4)nc(N4CCOCC4)nc32)cn1
luminescence signal (MDA-MB-468; cell viability, CellCounting-Lite; 2000 nM, 37 °C; higher = more viable cells): 51100 a.u. and 50400 a.u. and 45100 a.u.

O=C(Nc1nnc2[nH]c(=S)[nH]c(-c3ccc(Cl)cc3)c1-2)c1ccccc1
cell growth (Malme-3M; SRB; 10 µM, NCI60 single-dose screen; relative to: untreated): 89.1%

c1ccc2[nH]ccc2c1
mRNA level, LS mean (HCT-8; RNA-seq, refers to: ASNS; concentration not given): 157 counts per million

COc1cnc2cccc(N3CCc4c(cc(Cn5ccnc5C)cc4-c4cn(C)nc4C(F)(F)F)C3=O)c2c1
EC50 (HuCCT-1; cell growth, inhibitor; 120 h): > 30 µM

CN1C(=O)C2(NN=C(c3ccccc3)S2)c2ccccc21 (stereo not drawn)
viability loss (SK-N-BE(2) and SK-N-SH neuroblastoma; MTT; 10 µM, 24 h): ~40%

O=C(O)Cc1ccccc1Nc1c(Cl)cccc1Cl
representative mode point of departure (HepG2; protein level, refers to: HIF-1α; 6 h): 219 µM

COc1ccc(NC(=O)c2c(Nc3ccccc3)sc(C#N)c2NC(=O)CNc2ccc(Cl)cc2)cc1
early apoptotic cells (HepG2; annexin V-FITC/PI; concentration not given): 5.47 ± 0.42%

O=c1[nH]nc(OCCCc2ccc(Cl)cc2)c(NCc2cccnc2)c1Br
log2 fold change (HEK293T; RNA-seq, refers to: ATF3 mRNA; 10 µM, 6 h; relative to: vehicle): 1.69

CC(=O)c1nn(-c2ccc(Cl)cc2)/c(=N/N=C(\C)c2ccc(NC(=O)c3ccc(Cl)cc3)cc2)s1
viability (MCF7; 1.25 µM): 99.3%

C=CCn1c(=O)c2cnc(Nc3ccc(N4CCN(C)CC4)cc3)nc2n1-c1ccc2c(n1)[C@@](O)(CC)CC2
cells in G1 phase among γH2AX-positive cells (NCI-H1048; flow cytometry; concentration not given): 4.2%

CN(C)C(=O)c1cc2cnc(Nc3ccc(N4CCNCC4)cn3)nc2n1C1CCCC1
CD11b surface level (human neutrophils; flow cytometry; 1 to 10 µM, added: fMLF): decreased

CCOC(=O)CSc1nc(-c2ccc(Cl)cc2)c2c(NC(=O)c3ccccc3)nnc-2[nH]1
growth percent (MDA-MB-231/ATCC; NCI60 SRB; 10 µM): 93.9%

Cc1[nH]c2ccccc2c1CCNCc1ccc(/C=C/C(=O)NO)cc1
late apoptotic cells (A2780/CP; annexin V/PI flow cytometry; concentration not given, 48 h; relative to: untreated): 0.2%

CCCCc1oc2ccc(NS(C)(=O)=O)cc2c1C(=O)c1ccc(OCCCN(CCCC)CCCC)cc1
fold change (human embryonic stem cell aggregates; mRNA level, microarray, refers to: TBX3; 0.5 µM, 120 h; relative to: untreated, down-regulated): 2.8 fold

CCCCCCCCCCCCCC[N+](C)(C)C
Kd (GH3; Na+ channel; internal application, upper limit): 0.48 µM

Repeated from above:
CC/C=C\C[C@H](O)/C=C/C=C\C/C=C\C=C\[C@@H](O)C/C=C\CCC(=O)O
cAMP level (HUVEC with GNAS siRNA knockdown; HTRF; concentration not given): decreased

Nc1cccc2c1C(=O)N(C1CCC(=O)NC1=O)C2=O (stereo not drawn)
surface marker level (RPMI-8226; flow cytometry, refers to: CD71; concentration not given; relative to: comparator compound alone): 239%

Nc1ncnc2c1ncn2[C@@H]1O[C@H](CO)[C@@H](O)[C@H]1O
basal OCR (activated human T cells; concentration not given, 4 h; relative to: vehicle): 50.4% and 41.1% and 41.8% and 44.7% and 49.6% and 43.7%

O=C1NCN(c2ccccc2)C12CCN(CCCC(c1ccc(F)cc1)c1ccc(F)cc1)CC2
viability (MCF-10A; CellTiter-Glo; concentration not given; relative to: normalised, mean of replicates): 52.7%
